Experimental data of several laboratories.
Lines come from different studies, so protocols differ. ± gives the spread as reported.
Cell line: Caco-2

Compound	assay	test system	setting	how to read	quantity	value
O=C(O)c1cccc(CP(=O)(O)O)n1	membrane integrity, CFDA-AM		24 h, without 10% FBS		EC50	> 250 µg/mL
C[C@@H]1O[C@@H](O[C@@H]2[C@@H](O)[C@H](O)[C@@H](CO)O[C@H]2c2c(O)cc(O)c3c(=O)cc(-c4ccc(O)cc4)oc23)[C@H](O)[C@H](O)[C@H]1O	CCK-8		10 µM, 24 h		viability	106%
O=C(N[C@@H](Cc1ccccc1)C(=O)N[C@@H](C[C@@H]1CCNC1=O)C(O)S(=O)(=O)O)OCc1ccccc1 (stereo partly drawn)			5 (unit not given)		CC50	146 ± 9.1 µM
CCN(Cc1ccc2nc(C)[nH]c(=O)c2c1)c1ccc(C(=O)NC(C(=O)O)C(C)C)cc1 (stereo not drawn)				baseline: B-A over A-B	efflux ratio	3.2
Cc1ccc(CNC(=O)c2ccn3c(-c4ccc(C#N)cc4)cnc3c2)cn1					Papp	1.78 ×10⁻⁶ cm/s
CCC1CC(c2ccc(C(=O)O)cc2C)=NN1c1ccc(C#N)c(Cl)c1 (stereo not drawn)			10 µM, 2 h		apparent permeability B to A	12.3 ×10⁻⁶ cm/s
Cc1cc(-c2ccc3ccccc3c2)nnc1NCCN1CCN(C)CC1	Caco-2 permeability	basolateral to apical	5 µM, 0.5 h, together with: valspodar 1.0 µM		recovery	79%
CC(C)C(=O)OC[C@H]1O[C@@](C#N)(n2ccc(N)nc2=O)[C@H](O)[C@@H]1O	cell growth or viability				CC50	> 100 µM
N#Cc1ccc(N2N=C3c4ccc(C(=O)O)cc4CCC3C2C2CCCC2)cc1Cl (stereo not drawn)			10 µM, 2 h		apparent permeability A to B	6 ×10⁻⁶ cm/s

For quick reference, copied from above:
Compound	assay	test system	setting	how to read	quantity	value
O=C(N[C@@H](Cc1ccccc1)C(=O)N[C@@H](C[C@@H]1CCNC1=O)C(O)S(=O)(=O)O)OCc1ccccc1 (stereo partly drawn)			5 (unit not given)		CC50	146 ± 9.1 µM
